Measured values pooled from the literature.
Each line is one published result; not all experiments were run side by side. Values joined by “and” are separate records of one study, mostly repeats; a detail may differ.
B1: protein (Pseudomonas putida, UniProt A0ABM7EIE4); sequence looked up; chain MLRILLIDDTQHKLGRLKAALIEAGFEVTEAPGLTIDLPACVETVRPDVVLIDTDSPDRDVMEQVVLVSRDQPRPIVLFTDEHDPGVMRQAIQAGVSAYIVEGIHAARLQPILDVAMARFESDQALKAQLVARDQQLAERKRIEQAKGLLMKMKDCNEEQAYTLMRRQAMSRQQKLIQVAEQIIAMHEMLG
B2: panD Y126A (Mycobacterium abscessus, UniProt B1MGV7); chain MMFRTMMKSKIHRATVTHADLHYVGSVTIDPDLMEAADLLEGEQVTIVDIDNGARLETYAITGTRGSGVIGINGAAAHLVHPGDLVIIIAYGVMTDEEARAFTPRVVFVDSDNKQVELGEHSDDPAAVPENFGLVSPRGLV
B3: pyrE (Burkholderia cenocepacia, UniProt B4E589); sequence looked up; chain MTGYDRQSISDTTAKILLEVQAVHFNAEKPFIFTSGWASPVYIDCRKLISYPRVRRALMEMAETTITRDIGFEQIDAVAGGETAGIPFAAWIADRMMVPMQYVRKKPKGFGRNAQIEGHLEEGSRVLLVEDLTTDSRSKINFVNALRTAGATVNHCFVLFHYNIFKESVSVLKDIDVDLHALATWWDVLRVAKASGYFETKTLDEVEKFLHAPAEWSAAHGGATAPKE
B4: panD (Mycobacterium abscessus, UniProt B1MGV7); chain MMFRTMMKSKIHRATVTHADLHYVGSVTIDPDLMEAADLLEGEQVTIVDIDNGARLETYAITGTRGSGVIGINGAAAHLVHPGDLVIIIAYGVMTDEEARAFTPRVVFVDSDNKQVELGEHSDDPAYVPENFGLVSPRGLV
B5: codY (Clostridioides difficile, UniProt Q18BE1); sequence looked up; chain MASEVLQKTRKINKTLQTSGGSSVSFDLLAGALGDVLSSNVYVVSAKGKVLGLHLNDVQDSSVIEDEYTKQKKFSDEYTQNVLKIDETLENLNGEKILEIFPEEHGRLQKYTTVVPILGSGQRLGTLVLSRYSNSFNDDDLVIAEYSATVVGLEILRAIGEELEEEMRKKAVVQMAIGTLSYSELEAVEHIFAELDGKEGLLVASKIADRVGITRSVIVNALRKFESAGVIESRSLGMKGTHIRILNDKLTDELKKLKNNQ
B6: mpr (Mycobacterium smegmatis, UniProt Q50442); chain MTTPQPYPGMPSQPAPQGVPYPPQQPAKKKRKWPAIVGGVIALMIVGSIFNDDKKDTTPAENTATVAQAPAAAPTKEVPETTATINTPVRDGKFEFVVRSVEPGLSEVGDNPFLNQKAQGQFVIVTLSVQNIGDRPQGFSPSNQKLFDTEGRSFETDTSAQIALDNNDIAVWDNINPGNTVDVSLVYDMPVDAVPASIELHDSMFSGGVTVNLTP
B7: BvgA full length, non-phosphorylated C93A/C103A/S96C/T194C (Bordetella pertussis, UniProt P0A4H2); sequence looked up; chain MYNKVLIIDDHPVLRFAVRVLMEKEGFEVIGETDNGIDGLKIAREKIPNLVVLDIGIPKLDGLEVIARLQSLGLPLRVLVLTGQPPSLFARRALNCGAAGFVAKHENLHEVINAAKAVMAGYTYFPSTTLSEMRMGDNAKSDSTLISVLSNRELTVLQLLAQGMSNKDIADSMFLSNKTVSTYKTRLLQKLNACSLVELIDLAKRNNLA
B8: aer2 A184C/R224C (Pseudomonas aeruginosa, UniProt Q9I6V6); chain MGLFNAHAVAQQRADRIATLLQSFADGQLDTAVGEAPAPGYERLYDSLRALQRQLREQRAELQQVESLEAGLAEMSRQHEAGWIDQTIPAERLEGRAARIAKGVNELVAAHIAVKMKVVSVVTAYGQGNFEPLMDRLPGKKAQITEAIDGVRERLRGAAEATSAQLATAAYNARIKSALDNVSCNVMIADNDLNIIYMNRTVSEMLGRAEADIRKQLPNFDAGCLMGANIDVFHKNPAHQRHLLANLTGVHKAELNLGGRRFSLDVVPVFNDANERLGSAVQWTDRTEEHRAEQEVSQLVQAAAAGDFSKRVEEAGKEGFFLRLAKDLNSLVDTADRGLRDVSRMLGALAQGDLTQRIEADYQGTFGQLKDFSNDTAQSLSRMLGQIREAADTINTAASEIASGNAELSARTEQQASSLEETASSMEELTSTVKLNAENARQANSLAANASEVATQGGTVVQKVVSTMSSINESARKIADIIGVIDGIAFQTNILALNAAVEAARAGEQGRGFAVVAGEVRTLAQRSAAAAKEIKTLISDSVDKVENGNTLVAQAGQTMSDIVVAIRRVTDIMSEIAAASAEQSTGIEEVNSAVSQMDDMTQQNAALVEEAAAAAEAMQEQAGLLNQSVAVFRLDTPPSVVQLASARPSAPRPSAPAPLARSGMARASKARKEDGWEEF
B9: sduA 171-380 E264A (Bacillus cereus, UniProt B7HFR2); chain KEQDLDQLNTLIGIANLKKVLSVWESNKLTNTSEKFWQSVLKENTWILSQIFSNPTVLINDEAYVGGKTVKNDSGKLVDFLYANPFSKDAVLIAIKTPSTPLITPTEYRTGVYSAHKDLTGAVTQVLTYKTTLQREYQNIDYNNYRQGIKTDFDIITPCCVVIAGMFDTLTDTAHRHSFELYRKELKNVTVITFDELFERVKGLIKLLEG
B10: dnaN beta clamp 1-367 (Neisseria gonorrhoeae, UniProt A0ACH0F8P7); chain MLILQAERDSLLKPLQAVTGIVERRHTLPILSNVLIEGRGGQTKLLATDLEIQIDTAGPEGGAGDFRITTNAKKFQDILRALPAGALVSLDWDDNRLTLKAGKSRFALQTLPAADFPMMNVGEDISATFSLGQERFKTMLSQVQYSMAVQDIRYYLNGLLMQVEGSQLRLVATDGHRLAYAACAIDADLPRAEVILPRKTVLELFKLLNNPDDPIQIELLDKQVRFQCNGTTIVSKVIDGKFPDFNRVIPLDNDKIFVLSRAELLGALERVSILANEKFRGARLFLQPGLLSVVCSNNEQEEAREEIEIAYQGGELEVGFNIGYLMDVLRNIHSDDMQLAFGDANRSTLFTVPNNPNFKYIVMPMRI
Chain of UniProt A0QVQ5 (whole entry, looked up): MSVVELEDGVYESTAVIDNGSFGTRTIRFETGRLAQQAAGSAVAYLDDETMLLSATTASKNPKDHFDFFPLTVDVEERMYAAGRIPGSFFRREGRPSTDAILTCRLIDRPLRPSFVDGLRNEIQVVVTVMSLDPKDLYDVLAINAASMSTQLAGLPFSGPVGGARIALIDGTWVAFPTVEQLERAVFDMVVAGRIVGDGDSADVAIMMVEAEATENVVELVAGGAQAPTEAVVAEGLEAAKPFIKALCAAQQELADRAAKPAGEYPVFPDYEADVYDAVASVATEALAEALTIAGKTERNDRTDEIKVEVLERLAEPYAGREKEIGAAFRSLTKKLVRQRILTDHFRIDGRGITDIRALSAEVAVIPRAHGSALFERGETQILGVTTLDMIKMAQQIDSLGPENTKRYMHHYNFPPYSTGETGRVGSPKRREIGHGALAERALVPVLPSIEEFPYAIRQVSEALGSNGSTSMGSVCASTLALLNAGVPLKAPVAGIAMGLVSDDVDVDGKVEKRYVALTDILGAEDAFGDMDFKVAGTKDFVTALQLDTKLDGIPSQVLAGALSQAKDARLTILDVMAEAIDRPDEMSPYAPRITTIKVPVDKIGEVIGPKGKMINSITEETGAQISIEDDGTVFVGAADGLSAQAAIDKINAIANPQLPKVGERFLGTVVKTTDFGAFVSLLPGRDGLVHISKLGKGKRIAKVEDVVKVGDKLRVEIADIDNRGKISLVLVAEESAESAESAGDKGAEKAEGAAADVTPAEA

Molecule	target or system	test	system	conditions	how to read	quantity	value
B1 (protein)	itself	SEC	–	–	–	subunits per oligomer	4
B2 (panD Y126A)	itself	native gel	–	–	–	subunits per oligomer	4
insulin human	–	item: EPHA5 mRNA	EcoHIV-infected mouse, brain	i.p., dose not given	reference: PBS	fold change	0.97
B3 (pyrE)	itself	crystal structure	–	–	–	subunits per oligomer	2
B4 (panD)	itself	native gel	–	–	–	subunits per oligomer	4
B5 (codY)	itself	SEC	–	–	–	subunits per oligomer	2
gpJ (bacteriophage lambda, UniProt P03749)	itself	cryo-EM	–	–	–	subunits per oligomer	3
B6 (mpr)	itself	cross-linking	–	–	–	subunits per oligomer	2
B7	itself	cross-linking	–	–	–	subunits per oligomer	2
B8 (aer2 A184C/R224C)	itself	cross-linking	–	–	–	subunits per oligomer	4 and 2 and 6
B9 (sduA 171-380 E264A)	itself	SEC-MALS	–	–	–	subunits per oligomer	8
pnp (Mycobacterium smegmatis, UniProt A0QVQ5)	itself	cryo-EM structure	–	–	–	subunits per oligomer	3
B10 (dnaN beta clamp 1-367)	itself	SEC-MALS	–	–	–	subunits per oligomer	2
